Measurements pooled from the literature.
Numbered parts are unrelated; each lists some results of a single study. Positions count from the first letter of the parent shown.

Sample 1
Target: CCNF, cyclin fold, Cln2 fusion (human)
Method: yeast growth competition, sequencing
Medium: yeast
Setting: weak parent motif
Reference: not given
Direction: higher = stronger binding
Measurement: normalised enrichment score
Starting sequence: PKN2 docking peptide (human); DSTVTKLDFDLEP
E12A: -0.128
D8A: -0.414
D1A: 0.492
F9A: -0.186
L7A: -0.42
S2A: -0.122

Sample 2
Target: Sal-like protein 4, full length isoform B (SALL4, Homo sapiens, UniProt Q9UJQ4-2, residues 1-616)
Method: universal PBM
Form: double-stranded DNA, one strand shown
Medium: in vitro
Concentration: not given
Setting: 8-mer, flanks averaged, mean of replicates
Direction: higher = stronger binding
Measurement: E-score
Residues (chain): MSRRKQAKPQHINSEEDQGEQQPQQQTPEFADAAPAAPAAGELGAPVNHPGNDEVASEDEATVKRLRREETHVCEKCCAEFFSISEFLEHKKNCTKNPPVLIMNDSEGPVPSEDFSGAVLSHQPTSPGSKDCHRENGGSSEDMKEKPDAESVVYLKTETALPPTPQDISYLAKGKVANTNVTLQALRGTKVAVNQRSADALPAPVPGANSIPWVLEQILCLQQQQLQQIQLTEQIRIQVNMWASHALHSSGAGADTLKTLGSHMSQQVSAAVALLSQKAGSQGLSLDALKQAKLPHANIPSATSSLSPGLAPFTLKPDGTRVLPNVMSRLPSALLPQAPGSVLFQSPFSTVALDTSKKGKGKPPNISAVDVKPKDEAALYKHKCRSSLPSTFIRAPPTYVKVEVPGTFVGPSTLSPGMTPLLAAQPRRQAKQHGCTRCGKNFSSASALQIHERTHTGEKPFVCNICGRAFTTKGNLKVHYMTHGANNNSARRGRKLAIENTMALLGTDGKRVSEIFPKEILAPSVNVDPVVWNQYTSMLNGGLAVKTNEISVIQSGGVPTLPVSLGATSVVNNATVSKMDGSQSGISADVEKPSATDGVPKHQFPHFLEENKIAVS
CAAGCCTG: -0.0897
CCGCCCAC: -0.226
GCACACCC: -0.277
ATAACCAA: 0.292
ACGTTCAC: -0.0186
GACAACTA: 0.11
AAGCCCGT: -0.325
GTCTGCTA: 0.0129

Sample 3
Target: Interferon regulatory factor 5, full length, phosphomimetic (IRF5, Homo sapiens, UniProt Q13568-2, residues 1-514, S451D/S453D/S456D/S462D)
Method: protein-binding microarray
Form: double-stranded DNA, one strand shown
Medium: in vitro
Concentration: 940 nM top
Setting: 60-bp whole probe
Added: salmon DNA 0.4 mg/ml
Reference: random background probes
Direction: higher = stronger binding
Measurement: fitted relative affinity
Constant ends, left off below: GCCTAGCAC … GTCTTGATTCGCTTGACGCTGCTG
TTAGGTTTCGGACTGCGTTAGTGCTAG: 7.43 z-score
TCAATTTCCACTTTCTTACTGTGCTAG: 1.96 z-score
CCACTTTCCATTTCTGTTTTTGTGCTA: 2.55 z-score
TTAGGACTGCGTATCCTTTAGTGCTAG: -0.264 z-score
CACGGACTGGACTTTCGGGACGTGCTA: 0.639 z-score

Further values, each from its own experiment
PhoQ, residues 284 288 289 292 302 303 ALVSVA  fold induction (PhoP, residues 12 14 15 18 19 NQGLL (Escherichia coli, UniProt P23836); Sort-seq, item: YFP reporter; E. coli; PhoQ-PhoP variant library, added: 10 µM Mg2+; reference: high Mg2+ state, higher = stronger signaling): 5.07
